Assay results from different studies.
Each line is one published result; not all experiments were run side by side. Numbers after ± are the reported error.

Substance	organism	test	system	conditions	MIC
CC[C@H](C)[C@H](NC(=O)[C@H](CCCCN)NC(=O)CNC(=O)[C@H](CC(C)C)NC(=O)[C@H](Cc1ccccc1)NC(=O)[C@H](CCC(N)=O)NC(=O)[C@H](Cc1ccccc1)NC(=O)[C@@H](N)C(C)C)C(=O)N[C@H](C(=O)N[C@@H](Cc1c[nH]cn1)C(=O)N[C@@H](Cc1c[nH]cn1)C(=O)N[C@H](C(=O)NCC(=O)N[C@@H](CC(N)=O)C(=O)N[C@@H](Cc1ccccc1)C(=O)N[C@H](C(=O)N[C@@H](Cc1c[nH]cn1)C(=O)NCC(=O)N[C@@H](Cc1ccccc1)C(=O)N[C@@H](CO)C(=O)N[C@@H](Cc1c[nH]cn1)C(=O)N[C@H](C(=O)N[C@@H](Cc1ccccc1)C(N)=O)C(C)C)C(C)C)C(C)C)[C@@H](C)CC	Enterobacter cloacae	broth microdilution	AR 0136	pH 7.4	> 128 µM
CC[C@H](C)C[C@H](C)CCCCCCCCC(=O)N[C@H]1C[C@@H](O)[C@@H](NCCN)NC(=O)[C@@H]2[C@@H](O)CCN2C(=O)[C@H]([C@H](O)CCN)NC(=O)[C@H]([C@H](O)[C@@H](O)c2ccc(O)cc2)NC(=O)[C@@H]2C[C@@H](O)CN2C(=O)[C@H]([C@@H](C)O)NC1=O	Candida parapsilosis		ATCC 90018, RPMI 1640, 0.165 M MOPS	24 h, 35 °C, 100% inhibition endpoint	1.6 µg/mL
CC[C@H](C)[C@@H]1NC(=O)[C@H]([C@@H](C)O)NC(=O)[C@@H](NC(=O)[C@H](Cc2ccccc2)NC(=O)[C@H](C)NC(=O)[C@H](CCCCN)NC(=O)[C@H](CCCCN)NC(=O)[C@H](C)NC(=O)[C@@H](NC(=O)[C@H](CCCCN)NC(=O)[C@H](C)NC(=O)[C@H](C)NC(=O)[C@@H](NC(=O)CNC(=O)[C@H](C)NC(=O)[C@@H](NC(=O)[C@H](CCCCN)NC(=O)[C@@H]2CCCN2C(=O)[C@H](Cc2ccccc2)NC(=O)[C@@H](N)Cc2ccccc2)C(C)C)C(C)C)C(C)C)CSSC[C@@H](C(=O)O)NC(=O)[C@H](CCCCN)NC(=O)[C@H](CCCCN)NC(=O)[C@H](CO)NC1=O	Enterococcus faecium		12697	18 h	> 128 µM
actinomycin Y4	Mycolicibacterium aurum	broth microdilution	ATCC 23366	16 to 48 h	> 9.32 µg/mL
CC[C@H](C)[C@H](NC(=O)[C@H](CCCNC(=N)N)NC(=O)[C@H](CCCCN)NC(=O)[C@H](CC(C)C)NC(=O)[C@H](CC(C)C)NC(=O)CN)C(=O)N[C@@H](CCCCN)C(=O)N[C@H](C(=O)N[C@@H](CC(C)C)C(=O)N[C@@H](CC(C)C)C(N)=O)[C@@H](C)O	Staphylococcus epidermidis		ATCC 12228	18 to 20 h	8 µM
magainin 2	Porphyromonas gingivalis	serial dilution	ATCC 33277	24 h, 37 °C	> 100 µg/mL
O=C(N/N=C/c1ccccc1)c1cc([N+](=O)[O-])cc([N+](=O)[O-])c1	Aspergillus niger	tube dilution		7 days, 25 °C	< 25.1 µM
TFFRLFNRSFTGRRRRSVQWCA	Streptococcus mutans	broth microdilution	peptide, UA159	planktonic, anaerobic	10.7 ± 4 µg/mL
NCC[C@H](O)C(=O)N[C@@H]1C[C@H](N)[C@@H](O[C@H]2O[C@H](CN)[C@@H](O)[C@H](O)[C@H]2O)[C@H](O)[C@H]1O[C@H]1O[C@H](CO)[C@@H](O)[C@H](N)[C@H]1O	Mycobacteroides abscessus		ATCC 19977 ∆tap	120 h	2 µg/mL
Cc1ncc([N+](=O)[O-])n1CCO	Bacteroides fragilis		nim-negative strains incl. ATCC 25285		8 to 256 µg/mL
N=C(N)NCCC[C@H](NC(=O)[C@H](Cc1c[nH]cn1)NC(=O)[C@@H]1CCCN1C(=O)[C@H](CS)NC(=O)[C@@H](N)Cc1ccc(O)cc1)C(=O)N[C@@H](CS)C(=O)O	Streptococcus pyogenes	broth microdilution	MTCC 442	37 °C	55 µg/mL
CCCCCCCCCCCCCCc1cc(O)cc(O)c1	Enterococcus faecium	microbial growth, broth dilution		drug-resistant strain	32 µg/mL
TFFRLFNRGRRRRSVQWCA	Streptococcus mutans	broth microdilution	peptide, UA159	planktonic, anaerobic	10.7 ± 4 µg/mL
O=C(N/N=C/c1ccccc1Cl)c1cc([N+](=O)[O-])cc([N+](=O)[O-])c1	Aspergillus niger	microbial growth, broth dilution		7 days	25.1 µM
CC[C@H](C)[C@H](NC(=O)[C@@H]1CCCN1C(=O)[C@H](CCCCN)NC(=O)[C@@H]1CCCN1C(=O)[C@@H]1CCCN1C(=O)[C@@H](NC(=O)[C@@H]1CCCN1C(=O)[C@H](CCCNC(=N)N)NC(=O)[C@@H]1CCCN1C(=O)[C@H](CCCNC(=N)N)NC(=O)[C@H](Cc1ccc(O)cc1)NC(=O)[C@H](CO)NC(=O)CNC(=O)[C@H](CCCCN)NC(=O)[C@H](CC(=O)O)NC(=O)[C@@H](N)C(C)C)[C@@H](C)O)C(=O)N[C@@H](Cc1ccc(O)cc1)C(=O)N[C@@H](CC(N)=O)C(=O)N[C@@H](CCCNC(=N)N)C(=O)N[C@@H](CC(N)=O)C(=O)O	Salmonella enterica		serovar Newport	18 h, 37 °C, 12.5% Mueller-Hinton broth	0.037 ± 0.008 µM
COc1cc(OC)cc(C(=O)N/N=C/c2ccccc2Cl)c1	Staphylococcus aureus, Bacillus subtilis, Escherichia coli	bacterial growth		24 h	38.9 µM
LSTFFRLFNRSFTQGRRRRSVQWCA	Streptococcus mutans	broth microdilution	peptide, GS-5	24 h, 37 °C, planktonic, anaerobic	13.3 ± 4 µg/mL
COc1cc(OC)cc(C(=O)N/N=C/c2ccccc2)c1	Staphylococcus aureus, Bacillus subtilis, Escherichia coli	bacterial growth		24 h	43.7 µM
CC(C)C[C@H](NC(=O)[C@H](CCCNC(=N)N)NC(=O)[C@H](C)NC(=O)[C@@H](NC(=O)[C@H](CC(C)C)NC(=O)[C@H](Cc1c[nH]cn1)NC(=O)[C@H](CC(C)C)NC(=O)[C@@H](NC(=O)[C@@H](N)CO)[C@@H](C)O)C(C)C)C(=O)N[C@@H](CCCNC(=N)N)C(=O)NCC(=O)NCC(=O)O	Mycolicibacterium smegmatis		mc2 155	37 °C, ≥90% viability decrease	100 µM
CCCCCCCCCCCC(=O)N/N=C/c1ccccc1	Staphylococcus aureus, Bacillus subtilis, Escherichia coli	bacterial growth		24 h	44.7 µM
KKKKKKKK (Lys8-PNA conjugate)	Streptococcus pyogenes	broth microdilution	peptide	0.02% acetic acid, 0.4% BSA	15.6 µM
CCCCCCCCCCCCCCCC(=O)N/N=C/c1ccccc1	Aspergillus niger	microbial growth, broth dilution		7 days	138 µM
CO/N=C(\C(=O)N[C@@H]1C(=O)N2C(C(=O)O)=C(COC(C)=O)CS[C@H]12)c1csc(N)n1	Klebsiella aerogenes		AmpC-overproducing clinical isolate	alone without inhibitor	32 µg/mL
CCCCCCCCCCCCCCCC(=O)N/N=C/c1ccccc1Cl	Aspergillus niger	microbial growth, broth dilution		7 days	53.7 µM
Cc1n(CC(=O)OC2CC(C)CCC2C(C)C)c2ccccc2[n+]1C (stereo not drawn)	Mycolicibacterium smegmatis	microbial growth			25 µM
CCCCCCCCCCCCCC(=O)N/N=C/c1ccccc1	Staphylococcus aureus, Bacillus subtilis, Escherichia coli	bacterial growth		24 h	39.8 µM
Cc1ccccc1OCc1n(CC(=O)OC2CC(C)CCC2C(C)C)c2ccccc2[n+]1C (stereo not drawn)	Mycobacteroides abscessus	microbial growth			26.2 µM

For quick reference, copied from above:
Substance	organism	test	system	conditions	MIC
CC[C@H](C)[C@H](NC(=O)[C@@H]1CCCN1C(=O)[C@H](CCCCN)NC(=O)[C@@H]1CCCN1C(=O)[C@@H]1CCCN1C(=O)[C@@H](NC(=O)[C@@H]1CCCN1C(=O)[C@H](CCCNC(=N)N)NC(=O)[C@@H]1CCCN1C(=O)[C@H](CCCNC(=N)N)NC(=O)[C@H](Cc1ccc(O)cc1)NC(=O)[C@H](CO)NC(=O)CNC(=O)[C@H](CCCCN)NC(=O)[C@H](CC(=O)O)NC(=O)[C@@H](N)C(C)C)[C@@H](C)O)C(=O)N[C@@H](Cc1ccc(O)cc1)C(=O)N[C@@H](CC(N)=O)C(=O)N[C@@H](CCCNC(=N)N)C(=O)N[C@@H](CC(N)=O)C(=O)O	Salmonella enterica		serovar Newport	18 h, 37 °C, 12.5% Mueller-Hinton broth	0.037 ± 0.008 µM
COc1cc(OC)cc(C(=O)N/N=C/c2ccccc2Cl)c1	Staphylococcus aureus, Bacillus subtilis, Escherichia coli	bacterial growth		24 h	38.9 µM
LSTFFRLFNRSFTQGRRRRSVQWCA	Streptococcus mutans	broth microdilution	peptide, GS-5	24 h, 37 °C, planktonic, anaerobic	13.3 ± 4 µg/mL
COc1cc(OC)cc(C(=O)N/N=C/c2ccccc2)c1	Staphylococcus aureus, Bacillus subtilis, Escherichia coli	bacterial growth		24 h	43.7 µM
